Experimental data collected from several papers.
Each line is one published result; not all experiments were run side by side. Values joined by “and” are separate records of one study, mostly repeats; a detail may differ. Numbers after ± are the reported error. In brackets after ≈: the same amount, converted by molar mass.
OPRK1: Kappa-type opioid receptor (OPRK1, Homo sapiens, UniProt P41145)
Oprm1: Mu-type opioid receptor (Oprm1, Rattus norvegicus, UniProt P33535)
Slc6a4: Sodium-dependent serotonin transporter (Slc6a4, Rattus norvegicus, UniProt P31652)
Slc6a3: Sodium-dependent dopamine transporter (Slc6a3, Rattus norvegicus, UniProt P23977)
OPRM1: Mu-type opioid receptor (OPRM1, Homo sapiens, UniProt P35372)

By UniProt entry, the sequences of proteins in these tests, tags left out. Residues count along the entry.
UniProt P41145, whole entry: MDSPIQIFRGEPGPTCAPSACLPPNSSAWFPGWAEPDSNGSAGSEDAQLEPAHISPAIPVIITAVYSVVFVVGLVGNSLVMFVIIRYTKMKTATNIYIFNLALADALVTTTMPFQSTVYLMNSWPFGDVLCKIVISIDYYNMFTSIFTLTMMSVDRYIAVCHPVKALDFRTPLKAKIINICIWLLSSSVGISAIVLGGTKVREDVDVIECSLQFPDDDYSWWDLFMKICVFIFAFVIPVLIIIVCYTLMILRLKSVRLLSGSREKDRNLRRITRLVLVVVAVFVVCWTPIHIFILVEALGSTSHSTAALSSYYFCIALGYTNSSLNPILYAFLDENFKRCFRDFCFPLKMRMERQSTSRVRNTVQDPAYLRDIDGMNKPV
UniProt P33535, whole entry: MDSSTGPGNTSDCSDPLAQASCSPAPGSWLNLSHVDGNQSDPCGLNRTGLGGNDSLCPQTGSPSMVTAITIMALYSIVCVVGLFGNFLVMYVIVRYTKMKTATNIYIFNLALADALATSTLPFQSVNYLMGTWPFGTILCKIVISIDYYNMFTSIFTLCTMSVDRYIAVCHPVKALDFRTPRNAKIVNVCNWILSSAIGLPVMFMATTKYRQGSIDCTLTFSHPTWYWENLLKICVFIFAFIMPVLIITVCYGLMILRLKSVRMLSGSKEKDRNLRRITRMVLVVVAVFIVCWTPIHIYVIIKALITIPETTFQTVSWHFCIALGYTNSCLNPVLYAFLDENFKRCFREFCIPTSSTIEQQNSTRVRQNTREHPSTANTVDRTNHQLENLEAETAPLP
UniProt P31652, whole entry: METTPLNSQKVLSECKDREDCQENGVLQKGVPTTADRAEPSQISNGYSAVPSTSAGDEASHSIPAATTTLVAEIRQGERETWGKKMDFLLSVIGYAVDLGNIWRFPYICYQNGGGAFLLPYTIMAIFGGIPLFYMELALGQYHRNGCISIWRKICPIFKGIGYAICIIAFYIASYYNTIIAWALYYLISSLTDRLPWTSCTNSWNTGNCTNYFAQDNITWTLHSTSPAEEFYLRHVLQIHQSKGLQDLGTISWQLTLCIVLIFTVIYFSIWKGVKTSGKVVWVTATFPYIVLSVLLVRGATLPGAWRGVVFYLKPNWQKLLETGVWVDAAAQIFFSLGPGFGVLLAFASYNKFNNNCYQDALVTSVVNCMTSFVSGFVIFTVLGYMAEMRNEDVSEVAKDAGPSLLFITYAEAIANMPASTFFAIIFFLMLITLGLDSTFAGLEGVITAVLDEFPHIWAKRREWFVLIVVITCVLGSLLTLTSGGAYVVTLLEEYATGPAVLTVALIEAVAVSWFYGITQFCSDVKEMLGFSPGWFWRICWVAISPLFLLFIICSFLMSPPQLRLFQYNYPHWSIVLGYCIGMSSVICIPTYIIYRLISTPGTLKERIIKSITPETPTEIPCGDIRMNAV
UniProt P23977, whole entry: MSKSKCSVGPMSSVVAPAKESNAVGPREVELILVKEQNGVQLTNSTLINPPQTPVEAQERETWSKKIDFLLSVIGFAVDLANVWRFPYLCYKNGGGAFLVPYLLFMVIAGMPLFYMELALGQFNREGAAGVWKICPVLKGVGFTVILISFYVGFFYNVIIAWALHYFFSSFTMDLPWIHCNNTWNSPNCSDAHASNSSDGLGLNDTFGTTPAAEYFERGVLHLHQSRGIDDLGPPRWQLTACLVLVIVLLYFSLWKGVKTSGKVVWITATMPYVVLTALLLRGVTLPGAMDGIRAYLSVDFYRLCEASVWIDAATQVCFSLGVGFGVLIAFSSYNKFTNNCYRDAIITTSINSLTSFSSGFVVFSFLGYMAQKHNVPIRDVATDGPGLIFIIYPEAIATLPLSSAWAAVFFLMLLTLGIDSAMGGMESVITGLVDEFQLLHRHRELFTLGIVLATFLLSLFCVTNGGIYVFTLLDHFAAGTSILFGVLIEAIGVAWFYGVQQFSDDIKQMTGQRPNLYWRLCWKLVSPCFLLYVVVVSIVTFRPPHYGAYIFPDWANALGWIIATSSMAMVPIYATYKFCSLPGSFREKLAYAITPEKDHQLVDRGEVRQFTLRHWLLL
UniProt Q9UF33, whole entry, looked up: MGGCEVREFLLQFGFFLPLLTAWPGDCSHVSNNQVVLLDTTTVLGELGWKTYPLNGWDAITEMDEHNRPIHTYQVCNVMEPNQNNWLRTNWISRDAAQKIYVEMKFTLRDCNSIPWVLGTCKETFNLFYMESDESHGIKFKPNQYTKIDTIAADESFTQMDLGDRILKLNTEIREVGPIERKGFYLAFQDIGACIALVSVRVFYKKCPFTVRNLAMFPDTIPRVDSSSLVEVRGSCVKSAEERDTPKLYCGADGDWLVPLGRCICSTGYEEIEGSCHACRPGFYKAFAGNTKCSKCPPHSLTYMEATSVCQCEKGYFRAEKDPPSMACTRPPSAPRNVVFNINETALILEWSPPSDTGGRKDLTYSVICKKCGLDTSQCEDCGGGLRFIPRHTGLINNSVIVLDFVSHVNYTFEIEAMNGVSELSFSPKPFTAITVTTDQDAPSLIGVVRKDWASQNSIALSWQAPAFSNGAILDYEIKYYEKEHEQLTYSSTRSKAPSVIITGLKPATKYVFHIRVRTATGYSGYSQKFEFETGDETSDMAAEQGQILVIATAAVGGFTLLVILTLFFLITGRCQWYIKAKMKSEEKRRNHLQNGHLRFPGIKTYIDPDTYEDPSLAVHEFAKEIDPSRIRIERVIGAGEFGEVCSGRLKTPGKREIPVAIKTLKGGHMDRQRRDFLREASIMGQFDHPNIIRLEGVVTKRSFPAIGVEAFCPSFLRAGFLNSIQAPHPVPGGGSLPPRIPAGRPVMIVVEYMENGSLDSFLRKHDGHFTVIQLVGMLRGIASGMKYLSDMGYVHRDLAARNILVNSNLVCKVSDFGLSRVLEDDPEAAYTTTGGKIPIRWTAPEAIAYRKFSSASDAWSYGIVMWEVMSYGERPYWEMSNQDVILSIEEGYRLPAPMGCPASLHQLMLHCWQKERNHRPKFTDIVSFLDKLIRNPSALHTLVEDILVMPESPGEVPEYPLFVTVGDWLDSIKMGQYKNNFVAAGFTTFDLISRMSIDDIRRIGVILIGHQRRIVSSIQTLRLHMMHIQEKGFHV
UniProt P18507, whole entry, looked up: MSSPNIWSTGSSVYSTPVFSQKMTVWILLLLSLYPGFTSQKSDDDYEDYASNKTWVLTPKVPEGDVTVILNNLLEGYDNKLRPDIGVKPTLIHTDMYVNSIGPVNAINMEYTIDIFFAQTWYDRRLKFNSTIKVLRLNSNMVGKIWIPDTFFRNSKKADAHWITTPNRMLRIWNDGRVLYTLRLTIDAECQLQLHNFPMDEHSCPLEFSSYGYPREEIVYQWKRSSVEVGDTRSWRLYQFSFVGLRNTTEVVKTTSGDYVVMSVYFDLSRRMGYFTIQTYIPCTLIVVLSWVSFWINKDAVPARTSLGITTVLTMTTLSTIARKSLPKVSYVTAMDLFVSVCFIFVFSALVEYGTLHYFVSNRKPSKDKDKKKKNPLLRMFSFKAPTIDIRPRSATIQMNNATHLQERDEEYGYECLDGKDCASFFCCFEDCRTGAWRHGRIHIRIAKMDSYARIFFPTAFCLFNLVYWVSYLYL
UniProt P04757, whole entry, looked up: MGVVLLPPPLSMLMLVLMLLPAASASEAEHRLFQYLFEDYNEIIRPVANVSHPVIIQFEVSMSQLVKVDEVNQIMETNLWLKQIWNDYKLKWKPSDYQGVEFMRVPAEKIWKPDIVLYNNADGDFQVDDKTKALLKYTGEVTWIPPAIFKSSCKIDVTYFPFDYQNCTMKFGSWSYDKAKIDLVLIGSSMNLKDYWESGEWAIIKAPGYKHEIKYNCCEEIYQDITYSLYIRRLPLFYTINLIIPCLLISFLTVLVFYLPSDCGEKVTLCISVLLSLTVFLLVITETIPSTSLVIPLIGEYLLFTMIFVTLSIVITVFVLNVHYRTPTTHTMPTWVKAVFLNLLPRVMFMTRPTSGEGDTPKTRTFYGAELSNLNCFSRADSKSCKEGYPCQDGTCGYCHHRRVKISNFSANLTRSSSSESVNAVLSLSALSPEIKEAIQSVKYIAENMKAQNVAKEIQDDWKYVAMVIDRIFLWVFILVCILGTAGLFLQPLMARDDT
UniProt Q9H3N8, whole entry: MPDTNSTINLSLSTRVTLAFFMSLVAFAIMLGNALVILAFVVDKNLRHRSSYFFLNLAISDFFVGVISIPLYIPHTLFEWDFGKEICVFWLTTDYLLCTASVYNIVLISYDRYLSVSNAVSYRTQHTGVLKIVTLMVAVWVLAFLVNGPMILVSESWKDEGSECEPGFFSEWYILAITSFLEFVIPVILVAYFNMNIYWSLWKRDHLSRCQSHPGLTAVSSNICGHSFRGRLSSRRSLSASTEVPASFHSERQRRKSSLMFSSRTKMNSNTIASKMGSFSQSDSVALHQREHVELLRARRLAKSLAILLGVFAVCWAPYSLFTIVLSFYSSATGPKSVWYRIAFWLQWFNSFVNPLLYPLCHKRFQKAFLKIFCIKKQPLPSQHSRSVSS
UniProt P04839, whole entry, looked up: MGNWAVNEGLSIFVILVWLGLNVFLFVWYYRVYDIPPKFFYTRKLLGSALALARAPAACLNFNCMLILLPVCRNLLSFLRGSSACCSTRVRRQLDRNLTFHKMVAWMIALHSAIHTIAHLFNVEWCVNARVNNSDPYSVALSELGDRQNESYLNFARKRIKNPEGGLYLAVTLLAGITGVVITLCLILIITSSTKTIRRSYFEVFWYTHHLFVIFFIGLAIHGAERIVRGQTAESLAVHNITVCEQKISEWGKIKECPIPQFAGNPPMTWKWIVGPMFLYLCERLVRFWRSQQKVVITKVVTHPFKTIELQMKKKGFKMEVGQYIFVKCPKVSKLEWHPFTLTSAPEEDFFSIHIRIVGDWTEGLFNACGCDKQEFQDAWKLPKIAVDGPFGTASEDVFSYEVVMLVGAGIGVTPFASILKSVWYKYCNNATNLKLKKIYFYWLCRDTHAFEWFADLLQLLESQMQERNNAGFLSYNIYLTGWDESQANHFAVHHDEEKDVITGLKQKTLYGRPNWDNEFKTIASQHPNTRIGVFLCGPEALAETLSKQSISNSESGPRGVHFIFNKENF
UniProt Q9Y5S8, whole entry: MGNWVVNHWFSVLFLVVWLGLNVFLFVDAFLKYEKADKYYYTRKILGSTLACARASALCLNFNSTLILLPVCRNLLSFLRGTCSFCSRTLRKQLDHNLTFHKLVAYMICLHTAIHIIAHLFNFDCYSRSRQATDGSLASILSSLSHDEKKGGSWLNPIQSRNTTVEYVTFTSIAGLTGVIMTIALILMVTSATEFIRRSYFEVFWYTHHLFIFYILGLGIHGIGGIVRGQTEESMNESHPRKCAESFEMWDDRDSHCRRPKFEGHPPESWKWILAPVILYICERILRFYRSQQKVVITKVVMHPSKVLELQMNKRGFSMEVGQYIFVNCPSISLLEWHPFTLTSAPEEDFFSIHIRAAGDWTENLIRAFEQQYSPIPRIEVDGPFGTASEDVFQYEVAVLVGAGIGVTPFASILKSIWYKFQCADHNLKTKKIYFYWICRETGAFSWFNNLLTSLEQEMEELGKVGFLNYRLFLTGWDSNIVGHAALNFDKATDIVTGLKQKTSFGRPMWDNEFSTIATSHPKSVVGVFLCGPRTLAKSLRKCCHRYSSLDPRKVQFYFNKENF
UniProt P07510, 23-517 limits assumed: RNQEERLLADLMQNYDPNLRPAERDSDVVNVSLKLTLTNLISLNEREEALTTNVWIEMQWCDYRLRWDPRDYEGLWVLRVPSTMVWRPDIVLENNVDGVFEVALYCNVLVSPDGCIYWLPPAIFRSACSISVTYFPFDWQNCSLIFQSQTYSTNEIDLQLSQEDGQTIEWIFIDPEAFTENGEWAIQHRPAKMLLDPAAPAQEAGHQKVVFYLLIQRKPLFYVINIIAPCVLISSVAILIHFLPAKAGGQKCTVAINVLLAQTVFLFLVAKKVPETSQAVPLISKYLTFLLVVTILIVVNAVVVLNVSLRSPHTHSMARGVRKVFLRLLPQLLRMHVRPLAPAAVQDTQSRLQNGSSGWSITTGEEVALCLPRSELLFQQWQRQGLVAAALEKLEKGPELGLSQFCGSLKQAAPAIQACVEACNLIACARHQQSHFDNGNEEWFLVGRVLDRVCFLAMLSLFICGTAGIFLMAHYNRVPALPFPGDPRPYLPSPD
UniProt Q07001, 22-517 limits assumed: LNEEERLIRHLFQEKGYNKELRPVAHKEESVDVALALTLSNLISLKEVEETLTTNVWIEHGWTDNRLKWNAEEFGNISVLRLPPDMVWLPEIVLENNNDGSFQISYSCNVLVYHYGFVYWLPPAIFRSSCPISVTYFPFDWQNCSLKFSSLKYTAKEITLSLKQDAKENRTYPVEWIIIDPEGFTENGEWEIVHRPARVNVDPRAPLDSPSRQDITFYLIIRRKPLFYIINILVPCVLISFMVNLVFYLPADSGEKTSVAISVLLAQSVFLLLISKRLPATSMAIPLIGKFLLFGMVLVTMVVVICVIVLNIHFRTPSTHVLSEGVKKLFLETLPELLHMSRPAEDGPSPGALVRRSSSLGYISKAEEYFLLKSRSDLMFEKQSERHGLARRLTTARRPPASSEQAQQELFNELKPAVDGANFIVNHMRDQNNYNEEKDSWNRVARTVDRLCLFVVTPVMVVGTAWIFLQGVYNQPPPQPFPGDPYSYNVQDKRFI

Substance | tested on | assay | system | conditions | how to read | endpoint | result
CC#C/C(=N\OC[C@H]1COCCN1)c1ccc2ncnc(Nc3ccc(OCc4cccc(F)c4)c(Cl)c3)c2c1 | EPHA6 (Homo sapiens, UniProt Q9UF33) | kinase activity | – | 10 µM | – | inhibition | 36.3%
CO[C@]12C=C[C@@]3(C[C@@H]1[C@H](O)c1ccccc1)[C@H]1Cc4ccc(O)c5c4[C@@]3(CCN1CC1CC1)[C@H]2O5 | OPRK1 | binding, radioligand displacement | CHO | with: [3H]U-69593 | – | Ki | 0.0038 ± 0.00074 µM
O=C(Nc1ccccc1)c1cc([N+](=O)[O-])ccc1Cl | Salmonella typhimurium | Ames plate incorporation | TA100 | 1500 µg/plate, without metabolic activation | – | revertants | 2190 ± 30 revertants/plate
CC[C@H](C)[C@H](NC(=O)[C@H](Cc1ccc(O)cc1)NC(=O)[C@H](CCC(N)=O)NC(=O)[C@@H](N)CCC(=O)O)C(=O)N[C@@H](CCCCN)C(=O)N[C@@H](Cc1c[nH]c2ccccc12)C(=O)N1CCC[C@H]1C(=O)N[C@@H](Cc1c[nH]c2ccccc12)C(=O)N[C@@H](Cc1ccc(O)cc1)C(=O)N[C@H](C(=O)N[C@@H](Cc1c[nH]c2ccccc12)C(=O)N[C@@H](CC(C)C)C(=O)O)C(C)C | FPR1 (Homo sapiens, UniProt P21462) | binding, competition binding | – | 4 °C, with: formyl-Nle-Leu-Phe-Nle-Tyr-Lys-FITC 0.3 nM | – | Ki | 2.05 ± 0.107 µM
CO[C@]12CC[C@@]3(C[C@@H]1[C@](C)(O)c1ccccc1C)[C@H]1Cc4ccc(O)c5c4[C@@]3(CCN1CC1CC1)[C@H]2O5 | Oprm1 | binding, radioligand displacement | C6 rat glioma | with: [3H]diprenorphine | – | Ki | 0.00019 ± 8e-05 µM
CCN(CC)C(=O)Oc1ccc(C(=O)Nc2cccc3cc[nH]c23)cc1 | Glutamate receptor ionotropic, NMDA 2D, with GluN1 (Rattus norvegicus, UniProt Q62645) | – | – | – | – | dissociation rate constant | 0.2 ± 0.01 s⁻¹
C=C(C)[C@@H]1[C@H]2OC(=O)[C@@H]1[C@]1(O)C[C@H]3O[C@]34C(=O)O[C@H]2[C@]14C | GABA-A receptor; alpha-2/beta-3/gamma-2 (Homo sapiens, UniProt P18507+P28472+P47869) | chloride current, inhibitor, whole-cell voltage clamp | L929 | 3 min preincubation, with: GABA at EC90 | – | IC50 | 7.5 µM
CC(C)C[C@@H]1NC(=O)[C@H](CCC(=O)O)NC(=O)[C@@H]2CCCN2C(=O)[C@H](Cc2c[nH]cn2)NC(=O)[C@H](CCCCC(=O)O)NC(=O)[C@H](CC(C)C)NC(=O)[C@H](Cc2c[nH]cn2)NC(=O)[C@@H]2CSSC[C@H](NC(=O)CN)C(=O)N[C@@H](CSSC[C@@H](C(N)=O)NC1=O)C(=O)N[C@@H](CO)C(=O)N[C@@H](Cc1c[nH]cn1)C(=O)N1CCC[C@H]1C(=O)N[C@@H](C)C(=O)N2 | Chrna3/Chrnb2/Chrna6, with beta3 subunit (Rattus norvegicus, UniProt P04757+P12390+P43143) | ion current, antagonist, two-electrode voltage clamp | Xenopus laevis oocytes | with: 100 µM acetylcholine | – | IC50 | 0.0223 µM
CCCN1CCN(c2ccc3c(c2)C2CC3CCN2C(=O)OCc2ccccc2)CC1 (stereo not drawn) | HRH4 (Homo sapiens, UniProt Q9H3N8) | binding, radioligand binding | – | – | – | Ki | > 10 µM
CSCC[C@@H](C=O)NC(=O)[C@H](CC(C)C)NC(=O)[C@H](CC(C)C)NC(C)=O | Caco-2 | neutral red uptake | – | 48 h | – | CC50 | > 100 µM
CN(C(=O)Cc1ccc(Cl)c(Cl)c1)[C@H](CN1CCCC1)c1ccccc1 | Oprk1 (Mus musculus, UniProt P33534) | G protein activation, agonist | – | concentration not given | reference: dynorphin A | log intrinsic relative activity | 0.75 ± 0.08
C=C[C@@H]1[C@H]2CCC[C@]1(c1cccc(O)c1)CCN2CCc1ccccc1 | – | – | aqueous buffer | – | – | kinetic solubility | 34 µg/mL (≈ 97.8 µM)
CC[C@H](N)Cc1c[nH]c2ccccc12 | Slc6a4 | serotonin release, releaser | rat brain synaptosomes | – | – | EC50 | 0.0549 ± 0.0078 µM
Fc1ccc2nc(Sc3ncnc4c3nnn4Cc3ccccc3)oc2c1 | NADPH oxidase 2 (CYBB, Homo sapiens, UniProt P04839) | enzyme activity, inhibitor, MCLA chemiluminescence | cell-free membranes | – | – | IC50 | > 100 µM
CO[C@]12CC[C@@]3(C[C@@H]1[C@@](C)(O)c1ccncc1)[C@H]1Cc4ccc(O)c5c4[C@@]3(CCN1CC1CC1)[C@H]2O5 | OPRK1 | binding, radioligand displacement | CHO | with: [3H]diprenorphine | – | Ki | 0.00039 ± 9e-05 µM
CCCCCCC1c2ccc(O)cc2Oc2cc(O)ccc21 | Shigella flexneri | – | ATCC 12022 | with: NAB7061 4 µg/mL | – | MIC | 1.2 µg/mL (≈ 4.02 µM)
Cc1ccc2c(CCN)c[nH]c2c1 | Slc6a3 | dopamine release, releaser | rat brain synaptosomes | – | – | EC50 | 0.353 µM and < 0.5 µM
O=C(Cn1c(-c2ccccn2)nc2ccccc21)Nc1ccc2ccccc2c1 | Inosine-5'-monophosphate dehydrogenase (Leishmania donovani, UniProt P21620) | enzyme activity, inhibitor | – | – | – | IC50 | > 10 µM

Substance | tested on | assay | system | conditions | how to read | endpoint | result
Cn1cc(CCN)c2ccccc21 | Slc6a3 | dopamine release, releaser | rat brain synaptosomes | – | – | EC50 | > 10 µM
CC[C@@](O)(c1ccccc1)[C@H]1C[C@@]23CC[C@]1(OC)[C@@H]1Oc4c(O)ccc5c4[C@@]12CCN(CC1CC1)[C@@H]3C5 | OPRK1 | binding, radioligand displacement | CHO | with: [3H]U-69593 | – | Ki | 0.00036 ± 4e-05 µM
[3H]diprenorphine | Oprm1 | radioligand, saturation binding | N2a cell membranes | 1 h, pH 7.4, room temperature, with: [3H]diprenorphine | – | Kd | 0.00012 ± 2e-05 µM
CC(C)c1ccc2nc(Sc3ncnc4c3nnn4Cc3ccccc3)oc2c1 | NADPH oxidase 1 (NOX1, Homo sapiens, UniProt Q9Y5S8) | enzyme activity, inhibitor, Amplex Red | cell-free membranes | – | – | IC50 | > 100 µM
CCN1CCN(Cc2ccc(NC(=O)c3ccc(C)c(/C=C/c4cnc5[nH]ccc5c4OC)c3)cc2C(F)(F)F)CC1 | TPM4-ALK fusion | kinase-CDC37 interaction, cell-based kinome screen | – | 5 µM | reference: vehicle | log2 fold change | 0.174
CO[C@]12CC[C@@]3(C[C@@H]1[C@@](C)(O)C(C)(C)C)[C@H]1Cc4c(Br)cc(O)c5c4[C@@]3(CCN1CC1CC1)[C@H]2O5 | OPRM1 | radioligand binding | CHO | with: [3H]DAMGO | – | Ki | 0.0143 ± 0.00088 µM
CSc1nc(Cl)cc(Sc2nnc(-c3cc(C(F)(F)F)cc(C(F)(F)F)c3)[nH]2)n1 | Escherichia coli | – | NR698 | no additive | – | MIC | 1.8 µg/mL (≈ 3.81 µM)
NCCc1c[nH]c2ccc(Br)cc12 | Slc6a3 | dopamine release, releaser | rat brain synaptosomes | – | – | EC50 | 0.478 µM and < 0.5 µM
Cc1cc(O)ccc1O | Probable HTH-type transcriptional regulator YhaJ, effector-binding domain (yhaJ, Escherichia coli, UniProt P67660) | microscale thermophoresis | – | pH 7.5, primary effector site sample A | – | Kd | 11000 ± 3700 µM
CO[C@]12CC[C@@]3(C[C@@H]1[C@H](O)c1ccccc1)[C@H]1Cc4ccc(O)c5c4[C@@]3(CCN1CC1CC1)[C@H]2O5 | OPRD1 (Homo sapiens, UniProt P41143) | binding, radioligand displacement | CHO | with: [3H]DPDPE | – | Ki | 0.0026 ± 0.00022 µM
COc1cccc2c(CCN)c[nH]c12 | Slc6a4 | serotonin release, releaser | rat brain synaptosomes | – | – | EC50 | 0.0446 ± 0.0038 µM
C[C@H](Cc1ccc(O)c(O)c1)[C@@H](C)Cc1ccc(O)c(O)c1 | – | – | human skin | 3% solution, 8 h, skin UV-treated 20 min | – | total amount permeated | 28.2 ± 3.46 µg
NCCc1c[nH]c2cc(F)ccc12 | Slc6a4 | serotonin release, releaser | rat brain synaptosomes | – | – | EC50 | 0.0044 ± 0.0004 µM
CC[C@@](O)(c1ccccc1)[C@H]1C[C@@]23C=C[C@]1(OC)[C@@H]1Oc4c(O)ccc5c4[C@@]12CCN(CC1CC1)[C@@H]3C5 | OPRM1 | binding, radioligand displacement | CHO | with: [3H]DAMGO | – | Ki | 0.0032 ± 0.00038 µM
NCCc1c[nH]c2ccc(Cl)cc12 | Slc6a4 | serotonin release, releaser | rat brain synaptosomes | – | – | EC50 | 0.0191 ± 0.0029 µM
FC(F)(F)c1ccc2nc(Sc3ncnc4c3nnn4Cc3ccccc3)oc2c1 | NADPH oxidase 4 (NOX4, Homo sapiens, UniProt Q9NPH5) | enzyme activity, inhibitor, Amplex Red | cell-free membranes | – | – | IC50 | > 100 µM
NCCc1c[nH]c2ccc(F)cc12 | Slc6a4 | serotonin release, releaser | rat brain synaptosomes | – | – | EC50 | 0.0101 ± 0.0009 µM
O=C(C1CC1)N1CC2CC(C1)N2 | CHRNA1/CHRNG/CHRND, with beta1 subunit (Homo sapiens, UniProt P02708+P07510+Q07001) | binding | TE-671, membranes | with: [3H]epibatidine | – | Ki | 0.47 ± 0.086 µM

Repeated from above:
Substance | tested on | assay | system | conditions | how to read | endpoint | result
CSCC[C@@H](C=O)NC(=O)[C@H](CC(C)C)NC(=O)[C@H](CC(C)C)NC(C)=O | Caco-2 | neutral red uptake | – | 48 h | – | CC50 | > 100 µM
CC[C@@](O)(c1ccccc1)[C@H]1C[C@@]23CC[C@]1(OC)[C@@H]1Oc4c(O)ccc5c4[C@@]12CCN(CC1CC1)[C@@H]3C5 | OPRK1 | binding, radioligand displacement | CHO | with: [3H]U-69593 | – | Ki | 0.00036 ± 4e-05 µM
CC[C@@](O)(c1ccccc1)[C@H]1C[C@@]23C=C[C@]1(OC)[C@@H]1Oc4c(O)ccc5c4[C@@]12CCN(CC1CC1)[C@@H]3C5 | OPRM1 | binding, radioligand displacement | CHO | with: [3H]DAMGO | – | Ki | 0.0032 ± 0.00038 µM
CCN(CC)C(=O)Oc1ccc(C(=O)Nc2cccc3cc[nH]c23)cc1 | Glutamate receptor ionotropic, NMDA 2D, with GluN1 (Rattus norvegicus, UniProt Q62645) | – | – | – | – | dissociation rate constant | 0.2 ± 0.01 s⁻¹
